Experimental data gathered from unrelated publications.
Each numbered part is a random draw from the data of one study; scales do not carry over between parts. Positions count from the first letter of the parent shown.

Series 1
Target: CCNF, cyclin fold, Cln2 fusion (human)
Method: yeast growth competition, sequencing
Medium: yeast
Setting: strong parent motif
Reference: not given
Direction: higher = stronger binding
Parent: RBL2 docking peptide (human); STTRRRLFVENDS
`STTRRRLFPENDS [V9P]` — result for “normalised enrichment score”: 7.82.
`STTRLRLFVENDS [R5L]` — result for “normalised enrichment score”: 0.781.
`SRTRRRLFVENDS [T2R]`: “normalised enrichment score” 8.01.
For `STTRRRLFVENDK [S13K]`, “normalised enrichment score” read 7.96.
`TTTRRRLFVENDS [S1T]`: “normalised enrichment score” 7.81.
Under “normalised enrichment score”, `STTRRRKFVENDS [L7K]` is recorded as 0.843.
`SWTRRRLFVENDS [T2W]` — result for “normalised enrichment score”: 7.4.

Series 2
Target: Interferon regulatory factor 3, full length, phosphomimetic (IRF3, Homo sapiens, UniProt Q14653, residues 1-427, S386D/S396D/S398D/S402D/T404D/S405D)
Sequence of UniProt Q14653 (whole entry, unmodified, looked up): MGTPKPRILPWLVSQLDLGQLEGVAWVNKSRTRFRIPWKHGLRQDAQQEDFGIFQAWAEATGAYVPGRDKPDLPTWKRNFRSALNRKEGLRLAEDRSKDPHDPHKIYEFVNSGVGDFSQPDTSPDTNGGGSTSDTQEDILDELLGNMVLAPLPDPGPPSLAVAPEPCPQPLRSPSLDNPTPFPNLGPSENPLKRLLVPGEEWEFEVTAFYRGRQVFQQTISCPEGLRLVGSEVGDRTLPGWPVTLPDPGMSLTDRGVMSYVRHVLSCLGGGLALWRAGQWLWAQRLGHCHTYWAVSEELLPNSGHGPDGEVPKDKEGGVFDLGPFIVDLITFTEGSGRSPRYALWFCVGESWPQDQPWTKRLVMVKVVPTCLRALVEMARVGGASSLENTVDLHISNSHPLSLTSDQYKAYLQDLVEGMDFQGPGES
Method: protein-binding microarray
Form: double-stranded DNA, one strand shown
Medium: in vitro
Tested at: 2540 nM top
Setting: 60-bp whole probe
Added: salmon DNA 0.4 mg/ml
Reference: random background probes
Direction: higher = stronger binding
All sequences stand within: GCCTAGCAC … GTCTTGATTCGCTTGACGCTGCTG
For `GACGGTATCCTTTTCCTCACGTGCTAG`, “fitted relative affinity” read 7.28 z-score.
Under “fitted relative affinity”, `TTAGGTATCGACACTGGGTTTGTGCTA` is recorded as 0.0529 z-score.
Under “fitted relative affinity”, `GACGATCTCAGTTCCGAGACGTGCTAG` is recorded as 1.04 z-score.
Under “fitted relative affinity”, `TTAGGTCTCGGATTCGGTTAGTGCTAG` is recorded as 2.11 z-score.
`TTAGATTTCGGGTCTCGATTAGTGCTA` — result for “fitted relative affinity”: 2.33 z-score.
For `TTAGATTTCAGTTCCGAGTAGTGCTAG`, “fitted relative affinity” read 2.97 z-score.
`TTAGGTTTCTGGTTTCGGTTAGTGCTA`: “fitted relative affinity” 4.92 z-score.
`GACGGTCTCTGTATCGGGACGTGCTAG`: “fitted relative affinity” 1.09 z-score.
Under “fitted relative affinity”, `TCTTTTATGGTATTTTTTTGGTGCTAG` is recorded as 0.743 z-score.
`TCAGAAATTCCTCTGAGACTGTGCTAG`: “fitted relative affinity” -0.351 z-score.
For `GACGGTTTCGTTCTCCTGACGTGCTAG`, “fitted relative affinity” read 8 z-score.
`ATAGGACTGGGTATCGGTTAGTGCTAG`: “fitted relative affinity” 0.694 z-score.

Series 3
Target: RING finger protein unkempt homolog, zinc fingers 1-6, GST-SBP tag (UNK, Homo sapiens, UniProt Q9C0B0, residues 30-357)
Method: RNA Bind-n-Seq
Form: RNA
Medium: in vitro
Tested at: not given
Setting: RNA with constant flanks, human-mouse chimeric sites, ends assumed
Reference: input RNA pool
Direction: higher = stronger binding
Target sequence (chain): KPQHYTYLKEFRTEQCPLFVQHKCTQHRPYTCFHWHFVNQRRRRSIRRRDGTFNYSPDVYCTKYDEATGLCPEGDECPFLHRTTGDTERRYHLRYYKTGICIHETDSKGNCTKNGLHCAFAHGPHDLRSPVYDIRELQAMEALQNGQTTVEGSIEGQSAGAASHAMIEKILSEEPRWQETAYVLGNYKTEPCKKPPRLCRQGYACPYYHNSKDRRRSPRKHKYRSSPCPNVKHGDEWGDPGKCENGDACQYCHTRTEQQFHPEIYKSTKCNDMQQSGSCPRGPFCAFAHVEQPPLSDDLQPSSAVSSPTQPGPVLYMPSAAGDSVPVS
`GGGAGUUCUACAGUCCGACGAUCGUGUCCUGCUUUCAACUUAAAUCACUGAGGCAUCUCUACUGUUCUGUGAGCAUCAGGACUGUAGCGCUUGCCACCACCAGAUGAGAACAGAAGCAGCCUUUCUGUGGAGGGUGGGAAUGACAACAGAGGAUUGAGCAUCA` has a bound/input enrichment of 0.159 ratio.
The bound/input enrichment of `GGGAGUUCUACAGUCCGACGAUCGCGGCAGAAUCAUGGAGGACAUAAUGCAGCUCCCCAAAGCGCGCGUCAACGCCAGCAUGCUAGCUCAGUAUAUCGACCGGCCCGUGUGCUUCGUGGGGAAGCUGGAAAAGAUUCAUCCCACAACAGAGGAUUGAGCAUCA` is reported as 0.085 ratio.
For `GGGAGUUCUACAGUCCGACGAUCGUAAUGGACGUUAAUACUGCUCUACAAGAGGUUCUGAAGACCGCCCUCAUCCACGAUGGCCUAGCACGUGGCAUACGCGAAGCUGCCAAAGCCUUAGACAAGCGCCAAGCCCAUCUGUGUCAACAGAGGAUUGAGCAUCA`, the bound/input enrichment was 0.245 ratio.
The bound/input enrichment of `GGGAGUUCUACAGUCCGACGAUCGGACAUCUGUCAAAUUGUAUUUCCCGUGUGAAACAAGUGAACACUCUGAUACACUUCAUCUGCUUGUACAUCUGUAUGAUAGAGAAACAGAAAUCUAUUAAUCCAAGCAAUGUGUCACUUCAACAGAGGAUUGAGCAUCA` is reported as 0.209 ratio.
With `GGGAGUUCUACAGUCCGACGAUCGGAUCUUUGGGACUGUUUUACUUAAUUGGUCAUUGAUAGCUUAACAAACAUGGAGAUAAGAUUAGAAGUUUUGACAUCAACAGGUAUUAAGCAGAAAAAACCAUGGCCACGUGUCUCCUGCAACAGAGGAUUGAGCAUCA` the bound/input enrichment was 0.486 ratio.
With `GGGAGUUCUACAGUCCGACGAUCCUUAAUGUUAAUAUUUUUGAAUAAAUGAAGCUAAAAUUUUGCUUUCUGGUACAACACGCAUUAGCGAAAGGUUAAGUUUUGUUUUCCACUGAAGUACUAUUUAACAUCUCAGAAAAAAACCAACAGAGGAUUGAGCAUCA` the bound/input enrichment was 0.502 ratio.
With `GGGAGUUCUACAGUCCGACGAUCCUGGGCUUCUCUUUUCUUUCUUUCCUUUAGGAAAAGCCUAAAGAUUAGGUUGUAAGAAAAACAGAAGCCAUGUUUCGAAGACCUGUGUUACAGGUACUUCGUCAGUUUGUAAGACAUGAGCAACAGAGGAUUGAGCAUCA` the bound/input enrichment was 0.162 ratio.
`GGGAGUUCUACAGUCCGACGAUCUCCCAAAUCCAGCAGCUAGAAGGAGCCUUGAGACAAACACUCCACACACAGGGAAGGCAAUAGCUUUGUACAUUGGUUUACAUUUUUUCCCCCUGUGGAUUUUUCUAGAGGUCAUAGUGCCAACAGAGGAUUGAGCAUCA` gave a bound/input enrichment of 0.58 ratio.
With `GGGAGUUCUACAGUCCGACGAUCGGAAUUGCUGAUUCAAGUAAGUUUGAGUAUCACAAUGUUAGCUUUCUAAUUCCAUAAAAGUACUUGGUUUUUACAGUAACCCCACAUACAUCACCCCAGCGCCAUUUGUAAAGAGCAACUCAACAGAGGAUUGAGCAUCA` the bound/input enrichment was 0.774 ratio.
The bound/input enrichment of `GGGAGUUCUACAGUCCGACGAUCCUCGGCACCGGCACGCUUUACAUCGCGGAGAGCCGCCUGUCUUGGUUAGAUGGCUCUGGAUUAGGAUUCUCACUGGAAUACCCCACCAUUAGUUUACAUGCGGUGUCCAGGGAUCCAAACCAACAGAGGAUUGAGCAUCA` is reported as 0.433 ratio.
The bound/input enrichment of `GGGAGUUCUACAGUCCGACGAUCUACUACUAUGAUGGUGAUAUUGGCAAUUAUUAUUAUGGCCAGGGUCAUCCCAUGAAGCCUCAUAGAAUCCGGAUGACUCAUAACUUGCUGCUAAAUUAUGGCUUAUACCGAAAAAUGGAACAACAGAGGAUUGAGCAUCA` is reported as 0.179 ratio.

Mixed results
With `PhoQ, residues 284 288 289 292 302 303 AQGLTV` the fold induction was 1.23 (PhoP, residues 12 14 15 18 19 SGWQI (Escherichia coli, UniProt P23836); Sort-seq, measured: YFP reporter; E. coli; PhoQ-PhoP variant library, added: 10 µM Mg2+; reference: high Mg2+ state, higher = stronger signaling).

Excerpt of the above (series 1):
`TTTRRRLFVENDS [S1T]`: “normalised enrichment score” 7.81.
Under “normalised enrichment score”, `STTRRRKFVENDS [L7K]` is recorded as 0.843.
`SWTRRRLFVENDS [T2W]` — result for “normalised enrichment score”: 7.4.
